Published values collected from several papers.
Each numbered part is a random draw from the data of one study; scales do not carry over between parts. Positions count from the first letter of the parent shown.

Sample 1
Target: ABI1, truncated, D143A, DHFR fusion (Arabidopsis thaliana)
Method: DHFR PCA, deep sequencing
Medium: yeast
Setting: methotrexate growth selection, single substitutions
Together with: (+)-ABA 17 µM
Reference: wild-type fitted maximum
Reading: higher = stronger binding
Starting sequence: PYL1, truncated, DHFR fusion (Arabidopsis thaliana); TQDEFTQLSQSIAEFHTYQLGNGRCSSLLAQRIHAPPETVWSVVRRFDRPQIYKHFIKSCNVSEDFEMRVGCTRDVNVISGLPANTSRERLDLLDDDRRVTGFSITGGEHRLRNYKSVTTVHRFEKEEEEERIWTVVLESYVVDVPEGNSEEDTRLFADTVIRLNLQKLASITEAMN
| Change | relative binding score [%] |
| --- | --- |
| F47Y | 8.57 |
| V142T | 80.1 |
| R99Q | 81.8 |
| E130V | 83.8 |
| E174R | 45.6 |
| S117K | -0.707 |
| T101H | 18.3 |
| K58N | 65.5 |
| E147V | 78.1 |
| R163P | -14.7 |

Sample 2
Target: Interferon regulatory factor 5, full length, phosphomimetic (IRF5, Homo sapiens, UniProt Q13568-2, residues 1-514, S451D/S453D/S456D/S462D)
Method: protein-binding microarray
Molecule type: double-stranded DNA, one strand shown
Medium: in vitro
Tested at: 940 nM top
Setting: 60-bp whole probe
Together with: salmon DNA 0.4 mg/ml
Reference: random background probes
Reading: higher = stronger binding
All sequences stand within: GCCTAGCAC … GTCTTGATTCGCTTGACGCTGCTG
| Sequence | fitted relative affinity |
| --- | --- |
| GGCGGACTGGACTTTCGGGACGTGCTA | 0.414 z-score |
| GACGATTTCCGTCTCGAGACGTGCTAG | 0.922 z-score |
| TTCGGTCTCCTTATCCTTTAGTGCTAG | 1.1 z-score |
| GACGGACTGGACTATCGGGATGTGCTA | -0.366 z-score |
| AATTTTTTGTATTTTTAGTGGTGCTAG | 0.938 z-score |
| TTAGGTCTGCTTCTCCTTTAGTGCTAG | -0.147 z-score |
| TCAGCTATACCACTCTTACTGTGCTAG | 0.272 z-score |
| GACGGACTGGGACAGGGGACGTGCTAG | -0.636 z-score |
| GACGGTTTCGGTTCAGGGACGTGCTAG | 13.2 z-score |
| TTAGGACTGGACAATCGGTTAGTGCTA | -0.373 z-score |
| TCACATCTCACTCTAATACTGTGCTAG | 1.43 z-score |
| TTAGTTATCGGGTTTCGATTAGTGCTA | 5.68 z-score |
| TCAGATATTAAACTGATACTGTGCTAG | -0.257 z-score |
| TTAGATTTCAGACTTGATTAGTGCTAG | 0.126 z-score |
| TCAACTCTTTATTTAAGACTGTGCTAG | -0.0821 z-score |
| GACGATTCCAGTTACGAGACGTGCTAG | 0.156 z-score |
| TTAAATTTCGGGTTTCGATTAGTGCTA | 6.01 z-score |
| GACGATTTCGGGACTGGTGACGTGCTA | -0.0423 z-score |
| GGCGGTATCGGGACTGGGGACGTGCTA | 3.31 z-score |
| CCACATTTGATAAATCTTTGTGTGCTA | 0.349 z-score |
| GACGGACTGGACATTCGGGACGTGCTA | -0.685 z-score |
| GGCGGTATCGGTATCGGGACGTGCTAG | 9.22 z-score |
| GGGTCACTCAATCTCAACAGGTGCTAG | 0.162 z-score |
| CTTTTATTTTTTTTATTTATGTGCTAG | 2.18 z-score |
| TTAGGTCTACTACTGCTTTAGTGCTAG | -0.388 z-score |

Sample 3
Target: Ras GTPase-activating protein-binding protein 1, full length (G3BP1, Homo sapiens, UniProt Q13283)
UniProt Q13283, sequence (whole entry, looked up): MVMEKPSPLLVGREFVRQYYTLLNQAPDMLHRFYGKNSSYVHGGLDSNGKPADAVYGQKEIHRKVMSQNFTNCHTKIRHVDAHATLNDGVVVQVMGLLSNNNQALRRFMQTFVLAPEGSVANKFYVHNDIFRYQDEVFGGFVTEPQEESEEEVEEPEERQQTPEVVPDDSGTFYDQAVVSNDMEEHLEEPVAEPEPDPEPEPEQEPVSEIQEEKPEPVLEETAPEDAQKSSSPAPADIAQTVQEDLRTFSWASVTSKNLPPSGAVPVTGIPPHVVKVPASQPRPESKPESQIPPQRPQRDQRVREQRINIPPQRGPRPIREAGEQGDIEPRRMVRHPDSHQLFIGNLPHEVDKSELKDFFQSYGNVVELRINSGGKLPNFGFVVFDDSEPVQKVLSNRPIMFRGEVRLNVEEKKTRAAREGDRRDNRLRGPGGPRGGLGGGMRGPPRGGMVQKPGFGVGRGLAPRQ
Method: RNA Bind-n-Seq
Molecule type: RNA
Medium: in vitro
Tested at: 200 nM
Setting: whole 134-nt RNA, ends assumed
Together with: 150 mM KCl
Reference: input library
Reading: higher = stronger binding
| Sequence | log2 enrichment |
| --- | --- |
| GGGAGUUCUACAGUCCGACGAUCUCCUGUGCUACACAUCGUAUGUACCGAAUCGGGGUUUUUGGGGUUUUUGGGGUUUGGGGAAAGUAUUAUGUUACGCCGUUCGGAUCUGCAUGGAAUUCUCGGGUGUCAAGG | 0.688 |
| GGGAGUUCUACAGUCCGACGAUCCACAGACAACACGCACCCACACAGACACAGAGGGAAGGGGUUGGGAUGGGGACAGGGUGCACAGCAGGGCGGGGUAGGACCCCAGCCACUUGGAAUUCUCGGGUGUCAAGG | 1.81 |
| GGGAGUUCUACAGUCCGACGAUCUGGGAGGUGGAUUUUGUUUAUUUUUUUAGCUCAUUUCCAGGGGUGGGAAUUUUUUUUCAAUAUGUGUCAUGAAUAAAGUUGUUUUUGAAAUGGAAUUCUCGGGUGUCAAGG | 0.0891 |
| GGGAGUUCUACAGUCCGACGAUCCUGUGCUACACAUCGUAUGUACCGAAUCGGGGAAAAAAAGGGGUUUUUGGGGAAAAAGGGGAAAGUAUUAUGUUACGCCGUUCGGAUCUGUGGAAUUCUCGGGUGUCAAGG | -0.173 |
| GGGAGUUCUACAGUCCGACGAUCUCCUGUGCUACACAUCGUAUGUACCGAAUCGGGUUUUUGGGAAAAAGGGAAAAAAAGGGAAAGUAUUAUGUUACGCCGUUCGGAUCUGCAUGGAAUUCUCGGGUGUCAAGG | -0.312 |
| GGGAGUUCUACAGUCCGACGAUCUCAAGUCCUGUGCUACACAUCGUAUGUACCGAAUCGGGUGGGAAAAAGGGUGGGAAAGUAUUAUGUUACGCCGUUCGGAUCUGCACUUCCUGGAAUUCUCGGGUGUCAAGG | 0.779 |
| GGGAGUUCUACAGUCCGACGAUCCAAGUCCUGUGCUACACAUCGUAUGUACCGAAUCGGUUUUGGUUUUGGUUUUGGGGAAAGUAUUAUGUUACGCCGUUCGGAUCUGCACUUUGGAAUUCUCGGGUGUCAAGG | -0.971 |
| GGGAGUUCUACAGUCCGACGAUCUGGCCCUGGUGGCAUGCGGGGAGGAAGAGGUGGCCUCAUGGAUCGUGGUGGUCCCCGUGGAAUGUUCAGAGGUGGCCGUGGUGGAGACAGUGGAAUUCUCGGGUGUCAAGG | -0.162 |
| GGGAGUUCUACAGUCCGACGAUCUGAAGGCGCGGCCCUUCCCCGACGGCCUGGCCGAGGACAUCGAUAAAGGCGAGGUGUCCGCCCGUCAGGAGCUCAAGCAGCGGGCGCGCUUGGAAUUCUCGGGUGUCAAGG | -0.546 |
| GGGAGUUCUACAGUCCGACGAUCUAACUUUAGAGGAGGAUCUGAUGGAUAUGGCAGUGGACGUGGAUUUGGGGAUGGCUAUAAUGCGUAUGGAGGAGGACCUGGAGGUGGCAAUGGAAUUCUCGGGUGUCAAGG | 0.121 |

Sample 4
Target: CCND3, cyclin fold, Cln2 fusion (human)
Method: yeast growth competition, sequencing
Medium: yeast
Setting: weak parent motif
Reference: not given
Reading: higher = stronger binding
Starting sequence: ORC1 docking peptide (human); PRARKRLELGNLG; partner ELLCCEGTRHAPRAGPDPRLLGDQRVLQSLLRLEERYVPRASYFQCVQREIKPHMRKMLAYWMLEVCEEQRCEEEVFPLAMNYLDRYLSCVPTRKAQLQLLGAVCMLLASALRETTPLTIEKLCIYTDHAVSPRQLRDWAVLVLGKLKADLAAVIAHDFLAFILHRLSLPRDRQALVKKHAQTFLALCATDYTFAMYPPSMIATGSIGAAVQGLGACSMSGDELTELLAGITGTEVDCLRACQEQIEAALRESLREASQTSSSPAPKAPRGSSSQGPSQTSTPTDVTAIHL
| Change | normalised enrichment score |
| --- | --- |
| A3Y | 0.279 |
| G13D | 0.0443 |
| R6C | 0.0995 |
| N11W | 0.163 |
| K5H | 0.137 |
| L9T | 0.124 |
| N11P | 0.154 |
| L12S | 0.145 |
| R4K | 0.0711 |
| K5D | 0.0925 |
| P1G | -0.0473 |
| P1M | 0.0358 |
| N11T | 0.175 |
| G13L | 0.0282 |
| G10N | 0.107 |
| P1V | 0.0447 |
| K5Y | 0.0779 |
| P1E | 0.154 |
| K5F | 0.149 |
| L12H | 0.199 |
| L7Q | 0.16 |
| K5W | 0.106 |
| G13Q | 0.0263 |
| E8W | 0.118 |
| R6W | 0.105 |

Repeated from above (sample 2):
| Sequence | fitted relative affinity |
| --- | --- |
| GACGGACTGGACTATCGGGATGTGCTA | -0.366 z-score |
| GACGATTTCCGTCTCGAGACGTGCTAG | 0.922 z-score |
| TCAACTCTTTATTTAAGACTGTGCTAG | -0.0821 z-score |
| GGGTCACTCAATCTCAACAGGTGCTAG | 0.162 z-score |
| GACGGACTGGGACAGGGGACGTGCTAG | -0.636 z-score |
| CTTTTATTTTTTTTATTTATGTGCTAG | 2.18 z-score |
